Measurements of several laboratories.
Protocols differ between the studies behind these lines.
Target: Serine/threonine-protein kinase Nek4 (NEK4, Homo sapiens, UniProt P51957)
Chain of UniProt P51957 (whole entry, looked up): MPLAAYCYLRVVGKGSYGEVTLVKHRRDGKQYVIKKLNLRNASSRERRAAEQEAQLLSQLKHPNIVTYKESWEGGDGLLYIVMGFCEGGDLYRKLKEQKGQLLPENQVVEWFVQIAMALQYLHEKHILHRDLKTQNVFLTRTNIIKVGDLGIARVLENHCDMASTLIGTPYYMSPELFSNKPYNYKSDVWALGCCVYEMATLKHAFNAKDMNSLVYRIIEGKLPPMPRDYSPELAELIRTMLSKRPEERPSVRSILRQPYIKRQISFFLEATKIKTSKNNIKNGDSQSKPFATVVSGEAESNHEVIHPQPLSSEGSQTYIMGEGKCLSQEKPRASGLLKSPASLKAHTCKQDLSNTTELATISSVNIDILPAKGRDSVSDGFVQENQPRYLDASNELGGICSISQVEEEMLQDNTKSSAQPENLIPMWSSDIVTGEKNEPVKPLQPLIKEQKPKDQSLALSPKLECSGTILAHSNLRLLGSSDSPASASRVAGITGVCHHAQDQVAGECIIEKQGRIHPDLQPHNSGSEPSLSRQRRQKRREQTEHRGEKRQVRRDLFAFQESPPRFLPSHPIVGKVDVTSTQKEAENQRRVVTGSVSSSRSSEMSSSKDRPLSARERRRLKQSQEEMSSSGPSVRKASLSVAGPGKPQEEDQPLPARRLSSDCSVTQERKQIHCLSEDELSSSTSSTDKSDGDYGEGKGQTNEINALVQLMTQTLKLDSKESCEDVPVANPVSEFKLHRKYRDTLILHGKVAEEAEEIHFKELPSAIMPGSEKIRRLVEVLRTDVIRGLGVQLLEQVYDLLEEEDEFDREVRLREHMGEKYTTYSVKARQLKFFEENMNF

`CNC1C[S+]2CC[S+]3CC[S+](C1)[Ru-4]321([N]=C=S)[n]2c3ccc(OC)cc3c3c4c(c5cc(F)c[n+]1c5c32)C(=O)NC4=O` (stereo not drawn) has a remaining binding of 100% (KinomeScan; 0.1 µM; baseline: untreated).
The remaining binding of `CNC(=O)C1CCN(c2cc(C)c(F)cc2NC(=O)c2ccc(-c3cc(O)ccc3C)c(C)c2)CC1` is reported as 92% (binding, competition with immobilised ligand; 1 µM).
With `CCn1cc(C(=O)O)c(=O)c2c(N)c(F)c(NC3CCCCC3)cc21` the inhibition was -6.6% (kinase activity; 0.1 µM, added: ATP at Km).
With `COc1cc(Nc2nccc(-c3cnn4nc(OC)ccc34)n2)cc(C(F)(F)F)c1` the remaining binding was 92% (binding, competition with immobilised ligand; 1 µM).
For `O=C(Cc1ccc(OCc2ccccc2)cc1)NC1(C(=O)O)CCN(C(=O)c2ccc(-c3cccc(Cl)c3)cc2)CC1`, “activity vs control” read 104% (enzyme activity, inhibitor; 10 µM).
`NC(=O)C[C@H]1CCc2sc3ncnc(O[C@H]4CC[C@H](N5CCOCC5)CC4)c3c21` has an inhibition of 3% (enzyme activity, inhibitor; 10 µM).
`CC(C)=CC1OC(C)(C)C2C=C3C(=O)C(Cl)=CC(O)C3C3C(O)C4OC4C(=O)C132` (stereo not drawn) gave a remaining binding of 99% (cell-free assay, competition with immobilised ligand; 10 µM).
With `CN1CCN(Cc2ccc(-c3ccc(CO[C@H]4CCC[C@@H]4NC(=O)c4cc(-c5cnn(C)c5)cnc4N)cc3)cc2)CC1` the inhibition was 3% (enzyme activity, inhibitor; 0.1 µM).
`CCN1CCN(Cc2ccc(C(=O)Nc3ccc(C)c(NCc4cnc5[nH]ccc5c4OC)c3)cc2C(F)(F)F)CC1` has a remaining binding of 43% (binding, competition with immobilised ligand; 1 µM).
The remaining binding of `Cc1ccc(-c2c(/C=C(\C#N)C(=O)NC(C)C)n(CCCO)c3ncnc(N)c23)cc1` is reported as 94% (cell-free assay, competition with immobilised ligand; 1 µM).
`CN1CC[C@@H](COc2cnc(C#N)cc2-c2ccn3nc(NC(=O)C4CC4)cc3c2)C1` has an inhibition of 2% (enzyme activity, inhibitor; 1 µM).
For `CN1C[C@@H](c2c[nH]c3cc(Br)ccc23)NC[C@@H]1c1c[nH]c2cc(Br)ccc12`, the remaining activity was 105% (enzyme activity, inhibitor; 10 µM).
